Measured values gathered from unrelated publications.
A part holds a random share of what one study measured.

Block 1 — technique: protein binding microarray; form: double-stranded DNA, one strand shown; medium: in vitro; tested at: not given; reference: not given; reading: higher = stronger binding; measurement: E-score
Target: Histone acetyltransferase KAT6A, winged helix 2, GST fusion (KAT6A, Homo sapiens, UniProt Q92794, residues 85-181)
Setting: 8-mer, flanks averaged, mean of 2 arrays, mostly near background
Construct (chain): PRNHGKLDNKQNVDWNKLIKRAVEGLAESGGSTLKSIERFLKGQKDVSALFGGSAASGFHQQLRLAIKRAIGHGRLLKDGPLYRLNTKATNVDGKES
AAGGTATG: -0.109
AACCAACA: 0.167
CATTGACA: -0.0789
ACGACGAA: 0.0888
CGCGGCTC: 0.0146
GGCCACTA: -0.0596
AGTCTTTC: -0.138
AGTCGACG: 0.163
CTAATCAA: 0.175
AAAAGTGA: -0.044
CATAAGTA: -0.222
AGGGACCA: -0.0643
CCATCACC: -0.258
GCACGTGA: -0.189
GAGTACAA: 0.12
CGTCGAAG: 0.00832
CACTCTCG: -0.00337
CTCGTTGA: 0.105
GGTTGACA: -0.0951
CCAGCAGG: 0.0768
TTGTACAA: -0.0443
ATTAAAGC: 0.13
AACTTTCG: -0.101
ACCAGGCC: 0.165
TGACGAAA: 0.191

Block 2 — technique: universal PBM; form: double-stranded DNA, one strand shown; medium: in vitro; tested at: not given; reading: higher = stronger binding; measurement: E-score
Target: Sal-like protein 4, full length isoform B (SALL4, Homo sapiens, UniProt Q9UJQ4-2, residues 1-616)
Setting: 8-mer, flanks averaged, mean of replicates
Residues (chain): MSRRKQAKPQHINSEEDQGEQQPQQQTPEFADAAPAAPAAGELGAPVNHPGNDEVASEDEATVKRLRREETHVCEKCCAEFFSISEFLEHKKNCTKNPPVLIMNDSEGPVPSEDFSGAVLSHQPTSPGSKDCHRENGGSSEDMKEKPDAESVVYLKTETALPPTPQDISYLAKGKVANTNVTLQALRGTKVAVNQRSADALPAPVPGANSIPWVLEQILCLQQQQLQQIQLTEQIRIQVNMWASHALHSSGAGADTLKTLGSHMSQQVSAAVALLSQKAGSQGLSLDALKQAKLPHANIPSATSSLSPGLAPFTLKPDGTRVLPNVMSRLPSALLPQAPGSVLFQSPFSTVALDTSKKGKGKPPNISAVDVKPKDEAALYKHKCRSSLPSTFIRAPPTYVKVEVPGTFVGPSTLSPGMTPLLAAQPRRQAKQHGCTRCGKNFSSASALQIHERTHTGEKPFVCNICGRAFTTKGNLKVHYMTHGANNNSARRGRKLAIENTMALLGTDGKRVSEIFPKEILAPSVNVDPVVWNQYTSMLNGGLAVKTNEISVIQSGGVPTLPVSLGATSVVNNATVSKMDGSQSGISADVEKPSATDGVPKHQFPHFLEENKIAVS
CCGATGAA: -0.0007
GGCCGGCC: -0.32
CCCCTGCA: -0.339
CTACGGGC: -0.32
GCGTTCGA: -0.164
ACCTCGCG: -0.22
ACCGGCGA: -0.33
CATTTTGC: 0.206
TTGCGCAA: 0.215
CAAGAGGA: -0.072
ACACGGTG: -0.141
ATGGATTG: 0.146
CCATCTTC: 0.0745
ACACTAGG: -0.0303
GACCAGAA: -0.00205
AATACTGA: 0.134

Block 3 — technique: RNA Bind-n-Seq; form: RNA; medium: in vitro; tested at: 365 nM; reference: no-protein control; reading: higher = stronger binding; measurement: RBNS enrichment (R)
Target: RNA binding protein fox-1 homolog 2, RRM domain, GST-SBP tag (RBFOX2, Homo sapiens, UniProt O43251-10, residues 100-194)
Setting: natural RNA segment, single round, ends assumed
Target sequence (chain): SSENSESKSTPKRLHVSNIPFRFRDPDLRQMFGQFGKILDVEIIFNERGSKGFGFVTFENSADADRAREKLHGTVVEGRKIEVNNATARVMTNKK
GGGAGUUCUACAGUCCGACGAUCAGGACAUGAGCCUGUCUAGUGUUUCCUAGGAAAGGGAUAGUUUUCUGUUGGUAUAGCAUUUUCUAAGGAAACUACUCACUCAGCGCCUACCCUUUGUUAGAAGUGUUGACUGGAAUUCUCGGGUGCCAA: 0.445
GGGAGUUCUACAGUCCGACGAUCCUCGCGCUGGCCAGGAUCCUCCUGCCGAGCUGAUGUCGCUCCUGCCCUCUGCCGGGGUCCGGAAGCGACAUCUCAGGAGGUAGCUCUCAGCAGAGUGAGGAUUCCUGCCUUGGAAUUCUCGGGUGCCAA: 0.219
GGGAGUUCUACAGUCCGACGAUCAGAUGUUCCGCAAAGGAUGCUGAUCUACCAGGUUUAGCUCAACCUGGAAUAGCUGACUACCCAGGGAGCCACCCAGAUGGGGAAUCCAGCUUCCUUCUUCACCCGCCCCCUGGAAUUCUCGGGUGCCAA: 0.239
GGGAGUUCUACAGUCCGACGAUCUGCUCAAGGAAUCCACAUCUGGUGGGUAGGAGAAGAGAGACCCUGUUGCUAUAGUACAGAGACAAGUAUAUCUCUGCCCCAGCUCCAGUCUUGCUGGAUCCUCCUCCAGCUGGAAUUCUCGGGUGCCAA: 0.265
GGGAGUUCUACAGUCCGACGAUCGGACAUUCAUGCUCAGUACUUAAGGGAAUAUGCAUUGUCUGCAAUGGUGACUGAUUUCAAAUCAUGUUUUUUCUGCAAUGACUGUGGAGUUCCAUUCUUGGCAUCUACUCUGGAAUUCUCGGGUGCCAA: 0.33
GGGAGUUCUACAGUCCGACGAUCUGUGUAUCUAUACAUAUGGCUCUUGAGGACUUAGCUUUCACUACACUACAGGAUAUGAUCUCCAUGUAGUCCAUAUAAACCUGCAGAGUGAUUUUCCAGAGUGCUCGAUAUGGAAUUCUCGGGUGCCAA: 0.438
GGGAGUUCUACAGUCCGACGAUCUCACUUGUACUGUAAUAGUGUAUAUAACUUAGUUGGUAUUUCACUAUUUAAUUUUUAAGAAGCCUAUUUUACUAGUGUUUUGUAUGAAGAAAAAUACUGCAGAAGUUAAAUGGAAUUCUCGGGUGCCAA: 0.698
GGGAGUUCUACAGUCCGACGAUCUAAUAUGAGAUUUCUACUUCGGAGAGGCCAAGUCUAAUGAAGAGAAAAAAAGGAAAAGAAGUUGCAAGACUCGAAUAAAAUCUGCUGCACCUUGUAAAUGCUCUAACUGGUGGAAUUCUCGGGUGCCAA: 0.295
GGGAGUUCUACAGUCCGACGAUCAGAACCUGUGCCAACUGUGGAGUGGGGAGGUUGGGCCUGGACCCUCAACCCCUGCAACCUUCCCUAGCCCCCUCAAUAGAUGAGCAGGUCAGGCUGUGGCCCUUACCUCAUGGAAUUCUCGGGUGCCAA: 0.654
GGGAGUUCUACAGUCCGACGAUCAGCAGCAGCCCCGGCAACUCUGGCUCCAGGCAGAAGGAGAGGCCCGGUGCAGCUGAGGUUCCCGACACCAGAAGCUGUUGGGAGAAAGCAAUACGUUUGUGCAGAAUCUCUGGAAUUCUCGGGUGCCAA: 0.375
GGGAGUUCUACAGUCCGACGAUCCACGCUCUCCAUGCUAGAGAGCCUUCUCUUUCCUCUGAGGUUUGAACUGAUGUUCUGUGUCUUCACACCCUGGCAUGACAGUUACGUGUGGUCAGCCCGCUCCCCAGGCCUGGAAUUCUCGGGUGCCAA: 0.439
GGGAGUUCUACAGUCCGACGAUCCCACCUCCAGCAUUGCCAGCCUCAUCUGACAGAGAUGGAGCCCUUCUUCCCAUGCCCUGCCUCAGUAUCCCCAGAACUUGUGGCAGACAUUCACAGGUGCACGCAUAUAUUGGAAUUCUCGGGUGCCAA: 1.28

Block 4 — technique: protein-binding microarray; form: double-stranded DNA, one strand shown; medium: in vitro; tested at: 250 nM; setting: 60-bp whole probe; with: salmon DNA 0.4 mg/ml; reference: random background probes; reading: higher = stronger binding; measurement: log fluorescence; constant ends, left off below: GCCTAGCAC … GTCTTGATTCGCTTGACGCTGCTG
Target: Interferon regulatory factor 7, full length, phosphomimetic (IRF7, Homo sapiens, UniProt Q92985, residues 1-503, S101K/S471D/S472D/S475D/S476D/S477D/S483D/S484D/S487D)
Residues (chain): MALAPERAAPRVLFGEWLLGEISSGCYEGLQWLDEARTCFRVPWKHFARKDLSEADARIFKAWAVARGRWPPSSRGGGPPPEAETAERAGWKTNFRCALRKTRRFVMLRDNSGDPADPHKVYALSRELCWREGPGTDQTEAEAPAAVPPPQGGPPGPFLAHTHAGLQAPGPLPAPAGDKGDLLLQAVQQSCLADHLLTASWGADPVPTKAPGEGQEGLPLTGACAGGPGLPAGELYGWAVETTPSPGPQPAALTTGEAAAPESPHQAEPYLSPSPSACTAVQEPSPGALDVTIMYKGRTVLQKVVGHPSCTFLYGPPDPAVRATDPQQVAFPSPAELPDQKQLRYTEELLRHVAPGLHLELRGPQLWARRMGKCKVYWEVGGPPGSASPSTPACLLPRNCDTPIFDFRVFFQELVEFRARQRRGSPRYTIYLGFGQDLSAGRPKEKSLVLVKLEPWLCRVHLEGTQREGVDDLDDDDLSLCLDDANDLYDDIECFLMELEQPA
AGAGCTATCACTATTCTAGGGTGCTAG: -0.678 z-score
TTGGATATCAGTTTCGATTAGTGCTAG: 8.19 z-score
GACGATCTCAGTATCGATACGTGCTAG: 0.556 z-score
TTAGGTATCGGGTATCGGTTGGTGCTA: 1.44 z-score
CCAGTTGAGCACAGGAAAGTGTGCTAG: 0.119 z-score
TTAGGTATCCTTATCCTTTAGTGCTAG: 0.643 z-score
ATTGCTTCCTCTTTCTCTGCGTGCTAG: 1.16 z-score
TGACTTTTGAGAGATGGAAACGTGCTA: 0.0172 z-score
TCATTTCCATTTTCTAAAACTGTGCTA: 3.99 z-score
TTGCTTCCCAATTCTCTTTTCGTGCTA: 2.32 z-score
GACGGACTGGACTATCGGGTCGTGCTA: -0.523 z-score
AGGGCGGCTGAGTCAGCACAGTGCTAG: -1.16 z-score
GACGGTTTCCGTCTCCTGACGTGCTAG: 2.36 z-score
GATAATTTTTTTCTAAGTAAGTGCTAG: 0.216 z-score
GACGGTTTCCTAATGCTGACGTGCTAG: 2.75 z-score
TCACATTCTGAATTCGAACTGTGCTAG: 1.28 z-score
TTCTTTTTTTCTTTTATTAGGTGCTAG: 1.81 z-score
GACGATTTCAGACTGGCGACGTGCTAG: 0.00415 z-score
TTTGATTTCAGTTTCGATTAGTGCTAG: 9.09 z-score
TTCGGTATCGACTATCGGTTAGTGCTA: 0.605 z-score
TTAGATTACGGGTTTCGATTAGTGCTA: 6.89 z-score
TTAGGTATCGGGACTGGTTTAGTGCTA: 0.426 z-score
TCACCCCTCAGATCTGCCACTGTGCTA: -0.191 z-score

A few entries again (block 1):
AGTCGACG: 0.163
CTAATCAA: 0.175
AAAAGTGA: -0.044
CATAAGTA: -0.222
AGGGACCA: -0.0643
CCATCACC: -0.258
GCACGTGA: -0.189
GAGTACAA: 0.12
